Measurements of several laboratories.
Numbered parts are unrelated; each lists some results of a single study.

Sample 1 — method: protein binding microarray; molecule type: double-stranded DNA, one strand shown; medium: in vitro; concentration: not given; baseline: not given; direction: higher = stronger binding
Target: Histone acetyltransferase KAT6A, winged helix 1, GST fusion (KAT6A, Homo sapiens, UniProt Q92794, residues 1-85)
Setting: 8-mer, flanks averaged, mean of 2 arrays, mostly near background
Target sequence (chain): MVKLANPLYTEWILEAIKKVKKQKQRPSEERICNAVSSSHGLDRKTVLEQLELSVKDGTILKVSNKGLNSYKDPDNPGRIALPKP
Sequence | E-score
ACCCGGAC | 0.239
ACCGCGAT | 0.287
AGCGTAGC | 0.164
TATACGAA | -0.233
CGAAACGC | 0.16
TATCGATA | -0.00473
CACTGCCA | -0.116
GCTGCAAA | -0.109
AGTAGGGC | 0.0147
ACACCAGT | -0.288
AAGCTTGC | -0.0645
CTTAAGGA | -0.202
TAGACCCA | -0.26
ACTATGTA | -0.191
AGCCAGAC | -0.0807
ATTAGCGC | 0.36
GAGTTGGC | -0.0508

Sample 2 — method: protein-binding microarray; molecule type: double-stranded DNA, one strand shown; medium: in vitro; concentration: 250 nM; setting: 60-bp whole probe; together with: salmon DNA 0.4 mg/ml; baseline: random background probes; direction: higher = stronger binding; all sequences stand within: GCCTAGCAC … GTCTTGATTCGCTTGACGCTGCTG
Target: Interferon regulatory factor 5, full length, phosphomimetic (IRF5, Homo sapiens, UniProt Q13568-2, residues 1-514, K96S/S451D/S453D/S456D/S462D)
Sequence | log fluorescence [z-score]
TTAGGTTTAGGTTTCGGTTAGTGCTAG | 9.07
GTGATTTCAGTTTTCTTTTCGTGCTAG | 3.27
GACGACATCAGTCTCGAGACGTGCTAG | 0.106
CACTCTCTACATGTGTTTAAGTGCTAG | 0.403
TTAGGTATAGGTCTCGGTTAGTGCTAG | 0.121
TTAGGTTTCGAATATCGGTTAGTGCTA | 7.09
TTAGGACTGCCTATCCTTTAGTGCTAG | -0.479
GACGGTTTCCTACTGCTGAGGTGCTAG | 0.461
TTAGGACTAGGTCTCGGTTAGTGCTAG | 0.127
GACAATTTGGAAACCGAGTGGTGCTAG | -0.102
GACGATATCCGGACTGGAGACGTGCTA | 0.187
GACGTACTGGGGTTTCGAGACGTGCTA | 0.994
GACGGACTGCTTATCCTAACGTGCTAG | -0.233
GACCCTGGACACTTCACGTAGTGCTAG | -0.675
TTAGGTCACGGTTTCGGTTAGTGCTAG | 7.6
TTAGGTATCGACCTTCGGTTAGTGCTA | 2.97
CACGGACTGGGGTATCGGGACGTGCTA | -0.221
TTAGGTATCCGTCTCGGTTAGTGCTAG | 0.711
TCATTTCTCCTTTCGGAACTGTGCTAG | 5.11

Sample 3 — method: aptamer microarray, sandwich; molecule type: DNA with 2'F-ANA; medium: in vitro; concentration: 200 nM; together with: Cy3 exosite-II aptamer, 400 nM; direction: higher = stronger binding; sequence: GGTTGGTGTGGTTGG
Target: Prothrombin, mature alpha-thrombin (F2, Homo sapiens, UniProt P00734)
Setting: whole 15-mer aptamer, many near background
Modification | mean fluorescence intensity
2'F-ANA at 5 7 8 9 11 12 13 15 | 95.7 a.u.
2'F-ANA at 1 2 3 4 5 7 8 9 10 13 15 | 47.8 a.u.
2'F-ANA at 1 3 6 7 8 10 14 | 64 a.u.
2'F-ANA at 4 12 14 | 153 a.u.
2'F-ANA at 2 4 6 7 8 9 11 12 | 470 a.u.
2'F-ANA at 1 5 8 10 11 13 15 | 45.8 a.u.
2'F-ANA at 1 4 11 12 14 | 55.2 a.u.
2'F-ANA at 1 2 4 5 6 7 11 12 14 | 55.9 a.u.
2'F-ANA at 3 4 6 11 12 15 | 842 a.u.
2'F-ANA at 1 2 3 4 5 7 9 11 14 | 48.3 a.u.
2'F-ANA at 1 2 3 4 5 6 7 8 11 12 14 | 51.1 a.u.
2'F-ANA at 1 2 4 6 10 11 13 15 | 48.2 a.u.
2'F-ANA at 2 3 4 5 6 7 9 11 12 14 | 48.8 a.u.
2'F-ANA at 6 7 8 9 10 | 185 a.u.
2'F-ANA at 2 4 5 9 11 12 13 14 15 | 48.3 a.u.
2'F-ANA at 5 7 11 13 14 | 58.5 a.u.

Sample 4 — organism: Saccharomyces cerevisiae; observed: binding; method: competitive growth deep sequencing; molecule type: peptide; strain: cyclin D3-Cln2 fusion strain; concentration: concentration not given; setting: peptide tiling library; direction: direction not given
Sequence | growth enrichment score
KPKPVKPVTFSTGIKM | -0.379
AKRSLGFLPQPVPL | -0.456
ESSTVSEEDYFSSHRD | 0.538
VEEEFFALRKRTPSAG | 0.103
QYQVVDDIVSKLVFDF | -0.392
EAAPPTQEAQGETEPT | 0.812
RDLFDCDFGDLTPLDF | 0.493
IQKKLRFEDTLEFVGF | -0.349
GLPDFVFQQQPVESEA | -0.992
ALLRRLQDVANDRGSH | 4
DVSERGYVILPNDYFE | 0.52
LRRKLFLDGNGSIS | 0.148
RSLKLDGLLEEN | -0.0417
EPKTLFLGAGDFQF | 0.793
CFRCLLFSFSGRSGVE | -1.23

A few entries again (sample 1):
Sequence | E-score
AGTAGGGC | 0.0147
ACACCAGT | -0.288
AAGCTTGC | -0.0645
CTTAAGGA | -0.202
TAGACCCA | -0.26
ACTATGTA | -0.191
AGCCAGAC | -0.0807
ATTAGCGC | 0.36
